Results collected from several papers.
A part holds a random share of what one study measured. Positions count from the first letter of the parent shown.

Study 1
Target: CCNF, cyclin fold, Cln2 fusion (human)
Method: yeast growth competition, sequencing
Matrix: yeast
Setting: strong parent motif
Relative to: not given
Reading: higher = stronger binding
Parent: SAMHD1 docking peptide (human); ASKSRVQLFKDDP
Under “normalised enrichment score”, `D12S` is recorded as 0.758.
`Q7W`: “normalised enrichment score” 0.597.
`Q7G` — result for “normalised enrichment score”: 0.493.
For `Q7T`, “normalised enrichment score” read 0.358.
`K10F` — result for “normalised enrichment score”: 1.21.
`S2L`: “normalised enrichment score” 2.01.
For `V6D`, “normalised enrichment score” read -0.441.
For `K3S`, “normalised enrichment score” read 1.06.
Under “normalised enrichment score”, `K3A` is recorded as 1.38.
Under “normalised enrichment score”, `K3W` is recorded as 1.28.
`R5N`: “normalised enrichment score” -0.166.
For `S4V`, “normalised enrichment score” read 6.21.
For `F9Y`, “normalised enrichment score” read 0.213.
Under “normalised enrichment score”, `K10N` is recorded as 0.842.

Study 2
Target: RNA binding protein fox-1 homolog 2, RRM domain, GST-SBP tag (RBFOX2, Homo sapiens, UniProt O43251-10, residues 100-194)
Method: RNA Bind-n-Seq
Molecule type: RNA
Matrix: in vitro
Tested at: 365 nM
Setting: natural RNA segment, single round, ends assumed
Relative to: no-protein control
Reading: higher = stronger binding
All sequences stand within: GGGAGUUCUACAGUCCGACGAUC … UGGAAUUCUCGGGUGCCAA
Target sequence (chain): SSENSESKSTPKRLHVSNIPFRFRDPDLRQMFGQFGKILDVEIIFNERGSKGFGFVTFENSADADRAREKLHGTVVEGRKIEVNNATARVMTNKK
`GUCUUCAUCUUCCUCCUCAAGACAGCUGGUGCCUUAGAAUUGGCCCAGCCUCAGAUCCUGUCUUUAGCAACCAGCUAAUAUUUACCCAGAGGUACUGCAAUAGAGUAUUU` — result for “RBNS enrichment (R)”: 0.576.
Under “RBNS enrichment (R)”, `UGGUUGUUCUUGGGUUCUUUUGUCUUGUCAGAGCUCUUCUAUAACCUCGCUCUAAUGGCUUAACAGUUGUUCUGGGUGGAAACGUCCCCUCAUUUGAAUGCUCCUCUAAA` is recorded as 10.3.
Under “RBNS enrichment (R)”, `CCCCUUUCUUUGCAACUUCCCAGCAACAAUAAUGAUUUUCUUGCCAGGCCGUCUCUUGCUCCCUAAUUCAUUUCCCAGGAAGCUGUGAUACAGGGUGAAAUAAAGUCUUG` is recorded as 0.513.
Under “RBNS enrichment (R)”, `UUAGCUAUUAGUUCUUUGUGUUGUCUUAUCAAAGUUUAAUGGAUACAGUUCCACAGUUGUUGAUGUGUUUGUGUGUAUAUUCGAUUUUUAUAAAGAUGGUAGUAAGUCAA` is recorded as 0.794.
`UUUAAGGCAAUUGAAGACACGCAACCUCAGGUAUCCCGCUUUAUAUCGAUAGCUCCUCCCCCGGGAGACAGAGAGUCGCUCUGGUGGAUCAGUGUACAGAUUGUAUAUAG` — result for “RBNS enrichment (R)”: 0.338.
Under “RBNS enrichment (R)”, `UUGCAGUUUACCAAUUCAAUAUAGCCCUGCAUUUAAAGUUCCUUUUUAAGAUUUGUGGAUUUUAUUUUUAUUAAGAACAUAGAUAUAUAAAGUACUGUAGUUUACAGGUA` is recorded as 0.935.
`AGGGGGCCUGAGGACAGCCUUUUCCUCAGUCCUUGAGAUCAUUGCUCAUCCGUGCCAAACUGGGUAGAUGGGUUGGGAGACUCUCAAAAUGUGCCAAGGAUCCCCUACGU` — result for “RBNS enrichment (R)”: 0.411.
`AGUGCUAUGAAUGUAACUUAAAACUAUAAACUUGAAGUUUUUAUUCUAUAUGCCCCUUAAUAGACUGUGGUUCCUGACGCACACUGUUAGGUCAUUAUUUUGUUGUACCA`: “RBNS enrichment (R)” 0.534.

Study 3
Target: RING finger protein unkempt homolog, zinc fingers 1-6, GST-SBP tag (UNK, Homo sapiens, UniProt Q9C0B0, residues 30-357)
Method: RNA Bind-n-Seq
Molecule type: RNA
Matrix: in vitro
Tested at: not given
Setting: RNA with constant flanks, human-mouse chimeric sites, ends assumed
Relative to: input RNA pool
Reading: higher = stronger binding
All sequences stand within: GGGAGUUCUACAGUCCGACGAUC … CAACAGAGGAUUGAGCAUCA
Residues (chain): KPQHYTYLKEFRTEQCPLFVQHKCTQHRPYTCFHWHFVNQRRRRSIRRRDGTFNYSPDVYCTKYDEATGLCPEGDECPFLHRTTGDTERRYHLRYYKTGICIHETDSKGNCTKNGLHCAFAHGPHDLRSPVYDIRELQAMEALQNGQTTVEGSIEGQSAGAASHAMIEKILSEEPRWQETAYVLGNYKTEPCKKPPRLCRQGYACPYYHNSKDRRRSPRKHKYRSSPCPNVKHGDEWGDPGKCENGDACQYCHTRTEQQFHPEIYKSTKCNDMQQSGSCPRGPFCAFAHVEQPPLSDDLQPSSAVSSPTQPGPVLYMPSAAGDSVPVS
`CUGAGGAUACCACUGAAGAGACCUUAAAAGAAUCAUUUGAGGGCUCUCGUUCGGGCAGAAUAGUCACUGAUCGGGAAACUGGUUCUUCCAAAGGGUUUGGUUUUGUAGACUUUAAUAGUG` gave a bound/input enrichment of 0.765 ratio.
`AAUUUCCUGUCAUACUUUUUAGACAUUCACAUCAGACUUACAGAGCACCUGGCCACAUUCUAGUUUUGUGUUAUUUCUCAGCUAUGGAUAUGAUCAAAUGAGAACACUGGCAGCCAGAUG` has a bound/input enrichment of 1.02 ratio.
With `CACAGAGGCACCACCCCCCCCUCCUCCUUUCCACACCUGCAAACUCUUUUACUUGGGCUGAAUAUUUAGUGUAAUUAACAUCGCAGCUUGAGGGCUCCUGUGGCAAAUUCCCGGAUUAAA` the bound/input enrichment was 2.24 ratio.
With `AGCACAACACCAGCUAAGCUAAGAAAUCCUUGUACAAGUGAACAAAACUGCACCAGCCCAUUUAGCUACAAAAAUGUGCUUAGUCUUACUGACAGAGGAGAGUUUUUUAAUGAACUUGUU` the bound/input enrichment was 1.54 ratio.
With `UAAAUUAGGGCUGCCGUUUUCUGUUUCGCCCUGAGCUGCGGAAAGCCAGAAGAUUUUAUCUAGCUUAAACCAGGCUGCUGGUGUUCCCUCUUUUUUUCCACGAGGGUGUUUUUGGCUGCA` the bound/input enrichment was 0.431 ratio.
`CUCGGCACUGGUACCCUUUACAUCGCGGAGAGCCGCCUGUCCUGGUUAGAUGGUUCGGGAUUAGGAUUCUCACUGGAAUACCCCACCAUUAGUUUACAUGCGGUGUCCAGGGACCGAAAC` gave a bound/input enrichment of 1.19 ratio.
For `AAAGAAUGGAUAGAGUGUGCACACGGGAUCGGUGGGACCCGGGCGAAAAAGGAGUGCAAGAUAGAGUUCGAUGACUUCGAAGAGUGCUUGCUUCGGUACAAAACGAUGAGGCGAAUGCAU`, the bound/input enrichment was 0.567 ratio.
With `UGACAAGGGCACUGCAGAGCCAUGCCUUUCCUUGACAUACAGAAAAAGUUCGGCCUUAGCCUGGACCGAUGGUUGACGUUCCUAAGCGCAGAACAGCCCUAUAAGAACGCCGCUCGGUGC` the bound/input enrichment was 0.0797 ratio.

Other studies, line by line
The fold induction of `PhoQ, residues 284 288 289 292 302 303 TSTLRA` is reported as 12.7 (PhoP, residues 12 14 15 18 19 TPLRH (Escherichia coli, UniProt P23836); Sort-seq, refers to: YFP reporter; E. coli; PhoQ-PhoP variant library, together with: 10 µM Mg2+; relative to: high Mg2+ state, higher = stronger signaling).
